Assay results gathered from unrelated publications.
Protocols differ between the studies behind these lines. Numbers after ± are the reported error.
Chain of UniProt P08069 (whole entry, looked up): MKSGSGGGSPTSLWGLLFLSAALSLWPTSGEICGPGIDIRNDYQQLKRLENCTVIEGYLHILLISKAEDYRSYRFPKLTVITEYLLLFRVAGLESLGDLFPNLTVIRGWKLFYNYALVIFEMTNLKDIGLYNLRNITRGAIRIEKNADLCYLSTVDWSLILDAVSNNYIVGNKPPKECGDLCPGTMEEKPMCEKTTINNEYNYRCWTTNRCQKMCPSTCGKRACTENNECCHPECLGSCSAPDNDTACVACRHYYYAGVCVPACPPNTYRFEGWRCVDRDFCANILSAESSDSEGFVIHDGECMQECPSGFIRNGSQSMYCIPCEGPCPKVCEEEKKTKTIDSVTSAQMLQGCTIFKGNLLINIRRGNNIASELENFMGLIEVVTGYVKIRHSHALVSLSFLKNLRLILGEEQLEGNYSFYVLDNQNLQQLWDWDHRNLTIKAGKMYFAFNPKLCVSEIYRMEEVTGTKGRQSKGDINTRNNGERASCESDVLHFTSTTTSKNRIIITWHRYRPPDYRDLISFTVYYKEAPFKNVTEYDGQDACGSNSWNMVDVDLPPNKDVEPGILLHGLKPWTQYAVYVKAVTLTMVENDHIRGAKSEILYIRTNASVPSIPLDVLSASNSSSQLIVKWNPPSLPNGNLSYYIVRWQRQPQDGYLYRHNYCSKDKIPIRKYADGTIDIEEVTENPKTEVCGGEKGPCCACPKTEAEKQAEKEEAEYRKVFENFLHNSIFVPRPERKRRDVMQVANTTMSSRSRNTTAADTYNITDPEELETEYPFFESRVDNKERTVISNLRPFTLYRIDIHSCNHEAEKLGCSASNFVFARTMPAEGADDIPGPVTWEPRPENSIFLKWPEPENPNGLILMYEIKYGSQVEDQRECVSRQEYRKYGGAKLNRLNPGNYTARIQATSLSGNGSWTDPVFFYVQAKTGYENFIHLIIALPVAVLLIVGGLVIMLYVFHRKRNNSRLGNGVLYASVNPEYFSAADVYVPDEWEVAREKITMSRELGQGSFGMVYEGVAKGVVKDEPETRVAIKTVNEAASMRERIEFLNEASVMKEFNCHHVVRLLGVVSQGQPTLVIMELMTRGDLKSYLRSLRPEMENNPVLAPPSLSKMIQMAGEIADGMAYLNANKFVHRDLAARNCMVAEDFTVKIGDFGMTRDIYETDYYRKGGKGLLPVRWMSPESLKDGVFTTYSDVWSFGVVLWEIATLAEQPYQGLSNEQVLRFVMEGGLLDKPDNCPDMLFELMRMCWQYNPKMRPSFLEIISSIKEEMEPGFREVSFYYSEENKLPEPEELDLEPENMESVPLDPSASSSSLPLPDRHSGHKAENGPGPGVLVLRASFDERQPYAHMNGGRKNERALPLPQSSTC

Compound = C[C@]1(CO)Cc2ncn(-c3ccc(C#N)c(Cl)c3)c2C(=O)O1; system = healthy Japanese adults, plasma; conditions = 80 mg single dose; quantity = half-life; result = 5.9 h
Compound = CC(C)C[C@@H](NC(=O)[C@H](Cc1ccccc1)NC(=O)CNC(=O)[C@@H](C)NC(=O)[C@H](Cc1ccc(O)cc1)NC(=O)[C@@H]1CCCN1C(=O)[C@@H]1CCCN1C(=O)c1ccc[n+](C)c1)C(=O)O; assay = HPLC-UV; system = rat mid-brain homogenate; conditions = 100 µM, 37 °C; quantity = half-life; result = 0.2 h
Compound = [Cl][Ru-]([Cl])([Cl])[Cl].[Na+].c1ccc2[nH]ncc2c1.c1ccc2[nH]ncc2c1; assay = ICP-MS, item: total ruthenium; system = advanced solid tumour patients, plasma; conditions = iv infusion, 20 mg/m2, cycle 1 cohort mean; quantity = half-life; result = 128 h
Compound = COc1cccc2c1CCCC2CCCN1CCN(C2CCCCC2)CC1 (stereo not drawn); system = CD-1 mouse, male, lung; conditions = intraperitoneal, 1 mg/kg; quantity = half-life; result = 2.5 h
Compound = CCC(CNc1nc(-c2cn3ccnc3cc2C)nc2ccccc12)c1ccccc1 (stereo not drawn); assay = LC-MS parent depletion; system = mouse liver microsomes; quantity = half-life; result = 0.117 h
Compound = CCC[C@@](N)(CO)CCc1ccc(OCCCCCC(C)C)cc1; system = male hound dog, plasma; conditions = intravenous, 1.0 mg/kg, median; quantity = half-life; result = 19.5 h
Compound = Cn1ncc(-c2nc(N[C@H]3CC[C@H](N)CC3)ncc2Cl)c1CC1CC1; assay = HPLC-MS/MS; system = patients, plasma; conditions = oral, 21 mg, day 5; quantity = half-life; result = 38 h
Compound = CC(C)CC(=O)OC[C@H]1O[C@@](C#N)(c2ccc3c(N)ncnn23)[C@H](O)[C@@H]1O; system = human whole blood; conditions = 5 µM; quantity = half-life; result = 0.119 h
Compound = COc1cc2c(cc1OC)CN(CCc1ccc(NC(=O)c3cccc4c(=O)c5cccc(OC)c5[nH]c34)cc1)CC2; system = CD-1 mouse, male, lung; conditions = intraperitoneal, 3 mg/kg; quantity = half-life; result = 5.5 h
Compound = CCCCCCCC(=O)N[C@@H](CCCCN)C(=O)N[C@@H](CCCCN)C(=O)N[C@@H](C)C(=O)N[C@@H](CC(C)C)C(=O)N[C@@H](CCCCN)C(=O)N[C@@H](CC(C)C)C(=O)N[C@@H](C)C(=O)N[C@@H](CCCCN)C(=O)N[C@@H](CCCCN)C(=O)N1CCC[C@H]1C(=O)N[C@@H](CC(C)C)C(=O)N[C@@H](CCCCN)C(=O)N[C@@H](CC(C)C)C(=O)N[C@@H](CC(C)C)C(=O)N[C@@H](CCCCN)C(N)=O; system = mouse ICR CD1 female, whole blood; conditions = intravenous bolus, 1 mg/kg; quantity = half-life; result = 0.08 ± 0.03 h
Compound = C[C@H]1CN(c2n[nH]c3nc(N[C@H]4CC[C@H](NS(=O)(=O)CCC(F)(F)F)CC4)ncc23)CCO1; tested on = Insulin-like growth factor 1 receptor (IGF1R, Homo sapiens, UniProt P08069); assay = inhibitor, Kinobeads competition profiling; conditions = 0.16 µM; scale = reference: vehicle; quantity = relative abundance; result = 1.06
Compound = CC/C(=C(\c1ccccc1)c1ccc(OCCN(C)C)cc1)c1ccccc1; system = CD-1 mouse, male, lung; conditions = intraperitoneal, 10 mg/kg; quantity = half-life; result = 5.62 h

Repeated from above:
Compound = CC(C)C[C@@H](NC(=O)[C@H](Cc1ccccc1)NC(=O)CNC(=O)[C@@H](C)NC(=O)[C@H](Cc1ccc(O)cc1)NC(=O)[C@@H]1CCCN1C(=O)[C@@H]1CCCN1C(=O)c1ccc[n+](C)c1)C(=O)O; assay = HPLC-UV; system = rat mid-brain homogenate; conditions = 100 µM, 37 °C; quantity = half-life; result = 0.2 h
